{"data": "Experimental data collected from several papers", "note": "Numbered parts are unrelated; each lists some results of a single study."}
{"data": "Series 1", "target": "Fragile X messenger ribonucleoprotein 1, C-terminal low-complexity region (Fmr1, Mus musculus, UniProt P35922)", "technique": "RNA Bind-n-Seq", "form": "RNA", "sample": "in vitro", "concentration": "200 nM", "setting": "whole 134-nt RNA, ends assumed", "together with": "150 mM LiCl", "reference": "input library", "direction": "higher = stronger binding", "all molecules": "7-deaza-guanosine replaces G", "all sequences stand within": "GGGAGUUCUACAGUCCGACGAUC … UGGAAUUCUCGGGUGUCAAGG"}
{"Oligonucleotide": "UGAAGACACAGCAUCCACCCGAUCUUCAUUCACUGUCCAAGACCUUAAACCUUUUACAGAAUAUGUGUUUAGGAUUCGCUGUAUGAAGGA", "log2 enrichment": -1.65}
{"Oligonucleotide": "CCUCAAGUCCUGUGCUACACAUCGUAUGUACCGAAUCGGGCCGGCCGGGCCGGAAAGUAUUAUGUUACGCCGUUCGGAUCUGCACUUCCA", "log2 enrichment": 0.88}
{"Oligonucleotide": "AGUCCUGUGCUACACAUCGUAUGUACCGAAUCGGGUUUUUUUGGGUUUUUGGGAGGGAAAGUAUUAUGUUACGCCGUUCGGAUCUGCACU", "log2 enrichment": -0.764}
{"Oligonucleotide": "GCAGGAAGUAAAAAAAAAUGGAAAUGCUUCGGAUAGUGGCAGGGGUGGGGGUUGCUAAGGAAAGGGUGGGAUGGGAGUGGGUAAAGAGUU", "log2 enrichment": 1.43}
{"Oligonucleotide": "GCAGGAAGUAAAAACAAAUGGAAAUGCUUCGGAUAGUGGCAGGGGUGGGGGUUGCUAAGGAAUGGGUGGGAUGGGAGUGGGUAAAGAGUU", "log2 enrichment": 1.4}
{"Oligonucleotide": "UCGGAGGUGGAUUUUGUUUAUUUUUUUAGCUCAUUUCCAGGGGUGGGAAUUUUUUUUUAAUAUGUGUCAUGAAUAAAGUUGUUUUUGAAA", "log2 enrichment": 0.542}
{"Oligonucleotide": "UGUUGUCUGGGUUUGGGGGUCGAGUAGAUGCGGGGCAGCCGGAGCUGUUGACGGAAAGGAGUAGCCCCAAAGGAGGGCAUGUGAAGUCGC", "log2 enrichment": 0.308}
{"Oligonucleotide": "UCAAGUCCUGUGCUACACAUCGUAUGUACCGAAUCGGCCCGGCCCGGCCCGGGGAAAGUAUUAUGUUACGCCGUUCGGAUCUGCACUUCC", "log2 enrichment": -0.369}
{"Oligonucleotide": "CUCAAGUCCUGUGCUACACAUCGUAUGUACCGAAUCGGGGUGGGUGGGGUGGGGAAAGUAUUAUGUUACGCCGUUCGGAUCUGCACUUCC", "log2 enrichment": -0.325}
{"Oligonucleotide": "GUCCUGUGCUACACAUCGUAUGUACCGAAUCAAAUUUUUUUAAACCCAAAUUUUUAAAAAAGUAUUAUGUUACGCCGUUCGGAUCUGCAC", "log2 enrichment": -2.87}
{"Oligonucleotide": "CUCAAGUCCUGUGCUACACAUCGUAUGUACCGAAUCGGAAAAAGGAAAGGAGGAAAGUAUUAUGUUACGCCGUUCGGAUCUGCACUUCCA", "log2 enrichment": -1.65}
{"data": "Series 2", "target": "Sal-like protein 4, full length isoform B (SALL4, Homo sapiens, UniProt Q9UJQ4-2, residues 1-616)", "technique": "universal PBM", "form": "double-stranded DNA, one strand shown", "sample": "in vitro", "concentration": "not given", "setting": "8-mer, flanks averaged, mean of replicates", "direction": "higher = stronger binding"}
{"Oligonucleotide": "ACAATTCT", "E-score": 0.166}
{"Oligonucleotide": "CAAATGTG", "E-score": 0.184}
{"Oligonucleotide": "CCAAAGAG", "E-score": -0.121}
{"Oligonucleotide": "ATGTTTGA", "E-score": 0.199}
{"Oligonucleotide": "GACCATGA", "E-score": -0.021}
{"Oligonucleotide": "ACAGGGGA", "E-score": -0.234}
{"Oligonucleotide": "GCAAACGC", "E-score": -0.16}
{"Oligonucleotide": "ACCGCACC", "E-score": -0.348}
{"Oligonucleotide": "ACTCAAGC", "E-score": -0.0836}
{"Oligonucleotide": "ACCTCGCC", "E-score": -0.281}
{"Oligonucleotide": "CCCACAAC", "E-score": -0.139}
{"Oligonucleotide": "ACATAGCA", "E-score": 0.108}
{"Oligonucleotide": "GGTATCTA", "E-score": 0.241}
{"Oligonucleotide": "ACGCGCCG", "E-score": -0.321}
{"Oligonucleotide": "AGTCTCCA", "E-score": -0.0347}
{"Oligonucleotide": "CGTGATAG", "E-score": -0.0002}
{"Oligonucleotide": "CCCACCAG", "E-score": -0.251}
{"Oligonucleotide": "AGCCTGTA", "E-score": 0.0308}
{"Oligonucleotide": "CAAGAGCG", "E-score": -0.174}
{"Oligonucleotide": "CATCCGCG", "E-score": -0.0786}
{"Oligonucleotide": "TAAATTCA", "E-score": 0.304}
{"Oligonucleotide": "CGTCCGAG", "E-score": -0.25}
{"Oligonucleotide": "ACTAGCCT", "E-score": 0.0316}
{"Oligonucleotide": "CGTTCATA", "E-score": 0.251}
{"Oligonucleotide": "ATGACGCA", "E-score": 0.0578}
{"data": "Series 3", "target": "Prothrombin, mature alpha-thrombin (F2, Homo sapiens, UniProt P00734)", "technique": "aptamer microarray, sandwich", "form": "DNA with 2'F-ANA", "sample": "in vitro", "concentration": "200 nM", "setting": "whole 15-mer aptamer, many near background", "together with": "Cy3 exosite-II aptamer, 400 nM", "direction": "higher = stronger binding", "oligonucleotide": "GGTTGGTGTGGTTGG"}
{"Modification": "2'F-ANA at 2 4 7 8 9 10 11 12 13", "mean fluorescence intensity [a.u.]": 105}
{"Modification": "2'F-ANA at 2 4 6 7 8 10 11 14", "mean fluorescence intensity [a.u.]": 75.1}
{"Modification": "2'F-ANA at 1 2 3 4 7 8 10 12 15", "mean fluorescence intensity [a.u.]": 76.9}
{"Modification": "2'F-ANA at 1 4 5 7 8 9 12 13 14 15", "mean fluorescence intensity [a.u.]": 96.6}
{"Modification": "2'F-ANA at 1 5 8 11 15", "mean fluorescence intensity [a.u.]": 55.5}
{"Modification": "2'F-ANA at 1 5 6 9 10", "mean fluorescence intensity [a.u.]": 60.9}
{"Modification": "2'F-ANA at 1 2 6 7 8 10 12 14 15", "mean fluorescence intensity [a.u.]": 47.9}
{"Modification": "2'F-ANA at 2 5 6 7 8 10 11 13 14 15", "mean fluorescence intensity [a.u.]": 53.4}
{"Modification": "2'F-ANA at 1 2 3 5 6 8 14 15", "mean fluorescence intensity [a.u.]": 50.1}
{"Modification": "2'F-ANA at 1 5 12 13", "mean fluorescence intensity [a.u.]": 77.1}
{"Modification": "2'F-ANA at 4 5 6 9 12 13 14 15", "mean fluorescence intensity [a.u.]": 51.1}
{"Modification": "2'F-ANA at 1 2 4 6 11 12 14 15", "mean fluorescence intensity [a.u.]": 60.1}
{"Modification": "2'F-ANA at 1 2 3 4 8 12 14", "mean fluorescence intensity [a.u.]": 87.8}
{"Modification": "2'F-ANA at 1 3 5 6 7 10 11 15", "mean fluorescence intensity [a.u.]": 51.6}
{"Modification": "2'F-ANA at 2 3 4 7 9 12 14 15", "mean fluorescence intensity [a.u.]": 334}
{"Modification": "2'F-ANA at 1 3 4 6 8 11 12 13", "mean fluorescence intensity [a.u.]": 280}
{"data": "Series 4", "target": "Interferon regulatory factor 5, full length, phosphomimetic (IRF5, Homo sapiens, UniProt Q13568-2, residues 1-514, S451D/S453D/S456D/S462D)", "technique": "protein-binding microarray", "form": "double-stranded DNA, one strand shown", "sample": "in vitro", "concentration": "940 nM top", "setting": "60-bp whole probe", "together with": "salmon DNA 0.4 mg/ml", "reference": "random background probes", "direction": "higher = stronger binding", "all sequences stand within": "GCCTAGCAC … GTCTTGATTCGCTTGACGCTGCTG"}
{"Oligonucleotide": "TCATCTATCTTAAATAGGACTGTGCTA", "fitted relative affinity [z-score]": -0.133}
{"Oligonucleotide": "GACGATATCAGTATCGAGCCGTGCTAG", "fitted relative affinity [z-score]": 1.21}
{"Oligonucleotide": "TTAGGTTCCCTTTTCCTTTGGTGCTAG", "fitted relative affinity [z-score]": 0.808}
{"Oligonucleotide": "TTAGGACTGGACTATCGGGTAGTGCTA", "fitted relative affinity [z-score]": -0.56}
{"Oligonucleotide": "TCAACTGTCTGTTTCCTACTGTGCTAG", "fitted relative affinity [z-score]": 0.629}
{"Oligonucleotide": "TAAGGAGGCAGGGATGCTCCGTGCTAG", "fitted relative affinity [z-score]": -0.573}
{"Oligonucleotide": "GACGGTTTCGGGTTTCTGGACGTGCTA", "fitted relative affinity [z-score]": 8.34}
{"Oligonucleotide": "TTAGGTTTTGGTCTCGGTTAGTGCTAG", "fitted relative affinity [z-score]": 6.71}
{"Oligonucleotide": "TTAGGTCTCCTTTTCCTTCAGTGCTAG", "fitted relative affinity [z-score]": 0.879}
{"Oligonucleotide": "GACGATCTCAGACTGGCGACGTGCTAG", "fitted relative affinity [z-score]": -0.569}
{"Oligonucleotide": "GACGGACTGCGACTGCTGACGTGCTAG", "fitted relative affinity [z-score]": -0.744}
{"Oligonucleotide": "TTAGATTTCGGGTTTCGATTCGTGCTA", "fitted relative affinity [z-score]": 5.71}
{"Oligonucleotide": "TTAGATAGCAGTCTCGATTAGTGCTAG", "fitted relative affinity [z-score]": 1.92}
{"Oligonucleotide": "TTAGGTATCGTTATCCTTTAGTGCTAG", "fitted relative affinity [z-score]": 6.76}
{"Oligonucleotide": "GACGAAGTGGGGTATCGAGACGTGCTA", "fitted relative affinity [z-score]": 1.17}
{"Oligonucleotide": "GAAGAACTGGGGTATCGAGACGTGCTA", "fitted relative affinity [z-score]": 0.873}
{"Oligonucleotide": "TCAGTCACCCATCTCAGACTGTGCTAG", "fitted relative affinity [z-score]": 0.642}
{"Oligonucleotide": "TCATTTCTCTTTCACTGACTGTGCTAG", "fitted relative affinity [z-score]": 2.08}
{"Oligonucleotide": "TCACTCTTGCTTTTTAGACTGTGCTAG", "fitted relative affinity [z-score]": 1.29}
{"Oligonucleotide": "GGCCAAACAGTATTAAACTCGTGCTAG", "fitted relative affinity [z-score]": -0.162}
{"Oligonucleotide": "TTAGATATCGGGACTGAATTAGTGCTA", "fitted relative affinity [z-score]": -0.0469}
{"Oligonucleotide": "GACGATATTGGGACTGGAGACGTGCTA", "fitted relative affinity [z-score]": -0.32}
{"Oligonucleotide": "TTTACTTTCTGAATGCTCCCGTGCTAG", "fitted relative affinity [z-score]": 2.68}
{"Oligonucleotide": "CCCTTTTAAGTTCTCTGAAGGTGCTAG", "fitted relative affinity [z-score]": 1.03}
{"Oligonucleotide": "TTAGATTTTAGTCTCGATTAGTGCTAG", "fitted relative affinity [z-score]": 4.71}
{"data": "Series 5", "target": "Histone acetyltransferase KAT6A, winged helix 1, GST fusion (KAT6A, Homo sapiens, UniProt Q92794, residues 1-85)", "technique": "protein binding microarray", "form": "double-stranded DNA, one strand shown", "sample": "in vitro", "concentration": "not given", "setting": "8-mer, flanks averaged, mean of 2 arrays, mostly near background", "reference": "not given", "direction": "higher = stronger binding", "Construct (chain)": "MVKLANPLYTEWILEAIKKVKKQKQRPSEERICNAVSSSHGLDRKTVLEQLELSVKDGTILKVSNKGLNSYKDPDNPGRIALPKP"}
{"Oligonucleotide": "ATCAATAC", "E-score": -0.0424}
{"Oligonucleotide": "TCCTAGCA", "E-score": -0.00637}
{"Oligonucleotide": "CTCAACCC", "E-score": -0.149}
{"Oligonucleotide": "GGATTGAA", "E-score": -0.169}
{"Oligonucleotide": "AGCCGAGA", "E-score": 0.0433}
{"Oligonucleotide": "AAACGTCG", "E-score": 0.0576}
{"Oligonucleotide": "GTGAATAA", "E-score": -0.166}
{"Oligonucleotide": "ACGACGAG", "E-score": -0.295}
{"Oligonucleotide": "CAGCCCTG", "E-score": -0.0933}
{"Oligonucleotide": "GACTGCAC", "E-score": -0.139}
{"Oligonucleotide": "CATAGTGG", "E-score": -0.0458}
{"Oligonucleotide": "ACTGAAAG", "E-score": 0.0726}
{"Oligonucleotide": "CCGCAGAG", "E-score": 0.122}
{"Oligonucleotide": "CGTTGATC", "E-score": -0.0989}
{"Oligonucleotide": "ACCCTCGT", "E-score": 0.0304}
{"Oligonucleotide": "ACAATCGA", "E-score": -0.158}
{"Oligonucleotide": "TCCAGGGA", "E-score": -0.158}
{"Oligonucleotide": "CTCGACGC", "E-score": 0.0716}
{"Oligonucleotide": "ATATGGGC", "E-score": -0.0481}
{"Oligonucleotide": "ACAGATAC", "E-score": -0.0544}
{"note": "A few entries again (series 5):"}
{"Oligonucleotide": "AAACGTCG", "E-score": 0.0576}
{"Oligonucleotide": "GTGAATAA", "E-score": -0.166}
{"Oligonucleotide": "ACGACGAG", "E-score": -0.295}
{"Oligonucleotide": "CAGCCCTG", "E-score": -0.0933}
{"Oligonucleotide": "GACTGCAC", "E-score": -0.139}
{"Oligonucleotide": "CATAGTGG", "E-score": -0.0458}
